Measurements gathered from unrelated publications.
Lines come from different studies, so protocols differ.
Target: Casein kinase I isoform delta (CSNK1D, Homo sapiens, UniProt P48730)
Chain of UniProt P48730 (whole entry, looked up): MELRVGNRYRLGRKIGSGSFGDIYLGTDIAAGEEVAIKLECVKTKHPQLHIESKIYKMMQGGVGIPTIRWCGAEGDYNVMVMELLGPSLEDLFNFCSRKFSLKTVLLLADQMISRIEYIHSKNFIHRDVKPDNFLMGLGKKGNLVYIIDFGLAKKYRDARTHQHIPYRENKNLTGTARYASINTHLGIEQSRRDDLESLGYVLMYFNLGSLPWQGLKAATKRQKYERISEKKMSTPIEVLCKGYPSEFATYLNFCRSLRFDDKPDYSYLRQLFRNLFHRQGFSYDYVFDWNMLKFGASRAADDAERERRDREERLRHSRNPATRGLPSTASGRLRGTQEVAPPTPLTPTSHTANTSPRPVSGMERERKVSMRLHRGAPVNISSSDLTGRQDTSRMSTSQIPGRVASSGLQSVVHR

NC(=O)C[C@H]1CCc2sc3ncnc(O[C@H]4CC[C@H](N5CCOCC5)CC4)c3c21 — inhibition (enzyme activity, inhibitor; 10 µM): 24%
CN1CCN(Cc2ccc(NC(=O)c3cccc(C#Cc4cnc(N)c5ncccc45)c3)cc2C(F)(F)F)CC1 — remaining binding (cell-free assay, competition with immobilised ligand; 0.5 µM): 80%
Cc1cccc(-c2ccc3nc(NC(=O)C4CCCCC4)nn3c2)c1 — remaining activity (enzyme activity, Dundee kinase panel; 10 µM): 87%
Cc1ccc(-c2c(/C=C(\C#N)C(=O)NC(C)C)n(CCCO)c3ncnc(N)c23)cc1 — remaining binding (cell-free assay, competition with immobilised ligand; 1 µM): 72%
COc1ccc(NC(=O)Nc2ccc3c(c2)C(=O)N(C(C)CO)CC(C)C(CN(C)Cc2ccc4c(c2)OCO4)O3)cc1 (stereo not shown) — remaining binding (binding, competition with immobilised ligand; 10 µM): 100%
Cc1cnc2nc1Nc1cccc(c1)COC/C=C/COCc1cc(ccc1OCCN1CCOCC1)N2 — remaining binding (binding; 0.1 µM): 100%
CC(C)=CC1OC(C)(C)C2C=C3C(=O)C(Cl)=CC(O)C3C3C(O)C4OC4C(=O)C132 (stereo not shown) — remaining binding (cell-free assay, competition with immobilised ligand; 10 µM): 91%
C=C1CCCCCCCCCC(CO)C1=O (stereo not shown) — remaining signal (cell-free assay; 10 µM): 100%
COc1c(OCCCN2CCOCC2)ccc2c1N=C(NC(=O)c1cnc(N)nc1)N1CCN=C21 — remaining activity (kinase activity, inhibitor; 1 µM; reference: untreated control): 109%
CC(=O)N1c2ccc(-c3ccc(CNC(=O)c4cn5cc(-c6cnc(N)nc6)nc(N6CCOCC6)c5n4)cc3)cc2CC[C@@H]1C — remaining binding (KINOMEscan; 10 µM): 79%
O=C(Cc1ccc(OCc2ccccc2)cc1)NC1(C(=O)O)CCN(C(=O)c2ccc(-c3cccc(Cl)c3)cc2)CC1 — activity vs control (enzyme activity, inhibitor; 10 µM): 96%
CCN1CCN(Cc2ccc(C(=O)Nc3ccc(C)c(NCc4cnc5[nH]ccc5c4OC)c3)cc2C(F)(F)F)CC1 — remaining binding (binding, competition with immobilised ligand; 1 µM): 89%
CNS(=O)(=O)Nc1nccc(Cc2c(C)c3ccc(Oc4ncccc4F)cc3oc2=O)c1F — remaining binding (cell-free assay, competition with immobilised ligand; 10 µM): 97%
O=C=[N][Ru-4]123([n]4c5ccc(O)cc5c5c6c(c7cc(F)c[n+]1c7c54)C(=O)NC6=O)[S+]1CC[S+]2CC[S+]3CC1 (stereo not shown) — remaining activity (enzyme activity; 100 nM, human enzyme, together with: 10 µM ATP; reference: untreated): 24%
CCn1cc(C(=O)O)c(=O)c2c(N)c(F)c(NC3CCCCC3)cc21 — inhibition (kinase activity; 0.1 µM, together with: ATP at Km): 0.4%
COc1cc(Nc2nccc(-c3cnn4nc(OC)ccc34)n2)cc(C(F)(F)F)c1 — remaining binding (binding, competition with immobilised ligand; 1 µM): 100%
CN1CC[C@@H](COc2cnc(C#N)cc2-c2ccn3nc(NC(=O)C4CC4)cc3c2)C1 — inhibition (enzyme activity, inhibitor; 1 µM): 2%
Nc1nc(Nc2ccccc2)sc1C(=O)c1ccccc1 — remaining activity (enzyme activity, inhibitor; 10 µM): 14%
Cc1cccc(-c2ccc3nc(NC(=O)C4CCCO4)nn3c2)c1 (stereo not shown) — remaining activity (enzyme activity, Dundee kinase panel; 10 µM): 82%

For quick reference, copied from above:
CCn1cc(C(=O)O)c(=O)c2c(N)c(F)c(NC3CCCCC3)cc21 — inhibition (kinase activity; 0.1 µM, together with: ATP at Km): 0.4%
CNS(=O)(=O)Nc1nccc(Cc2c(C)c3ccc(Oc4ncccc4F)cc3oc2=O)c1F — remaining binding (cell-free assay, competition with immobilised ligand; 10 µM): 97%
CN1CCN(Cc2ccc(NC(=O)c3cccc(C#Cc4cnc(N)c5ncccc45)c3)cc2C(F)(F)F)CC1 — remaining binding (cell-free assay, competition with immobilised ligand; 0.5 µM): 80%
